Results from different studies.
Compare with care: the assays were run in different laboratories. ± gives the spread as reported.

Under “pole test performance”, `Cc1c(C(=O)Nc2ccn(C)n2)ncn1Cc1cccc(C(F)(F)F)c1` is recorded as “no effect” (human WT αS transgenic mouse; dose not given; reference: placebo).
`Cc1cc2c(cc1C1(c3ncc(C(=O)O)cn3)CC1)C(C)(C)CCC2(C)C` — result for “log2 fold change”: 0.17 (RNA sequencing, item: Mpeg1; rat, brain; dose not given, 24 h; reference: vehicle).
For `CCCCCCCCCCCCCCCC(=O)NCCCC[C@H](N)C(=O)N[C@@H](CC(=O)O)C(=O)N[C@H](C(=O)N[C@@H](Cc1c[nH]cn1)C(=O)N[C@@H](Cc1ccccc1)C(=O)N[C@@H](CCCNC(=N)N)C(=O)N[C@H](C(=O)N[C@@H](Cc1ccccc1)C(=O)N[C@@H](CCCNC(=N)N)C(=O)N[C@@H](CO)C(=O)N[C@@H](Cc1c[nH]cn1)C(=O)N[C@@H](CO)C(=O)N[C@@H](CC(=O)O)C(=O)N[C@@H](Cc1ccc(O)cc1)C(=O)N[C@@H](CCCNC(=N)N)C(=O)N[C@@H](CCCNC(=N)N)C(=O)N[C@H](C(=O)O)[C@@H](C)CC)[C@@H](C)O)[C@@H](C)O`, the liver weight was 1.08 ± 0.17 g (C57BL/6J mouse, MCD diet; intraperitoneal, 0.6 nmol/g, 3 weeks, 3 times weekly).
`Cc1cnc(Nc2cc(C)c(C)c(C)c2)nc1Nc1ccc2oc(=O)[nH]c2c1`: pAkt level “no effect” (item: phospho-Akt; rat, OVA asthma model, lung tissue; dose not given, 2 h after OVA challenge).
For `COc1cc(CN2CCN(c3ccccc3F)CC2)c2cc3[n+](cc2c1O)CCc1cc2c(cc1-3)OCO2`, the FRAP absorbance was 1.4 ± 0.72 a.u. (ferric reducing power, FRAP; 10 µg/mL, 30 min; higher is greater reducing power).
For `CCCc1nc2cc(C(=O)N3CCC4(CC3)CC(=O)c3cc5c(cc3O4)OC(C)(C)CC5)cc(C)c2[nH]1`, mRNA level read “inhibited” (item: lipogenesis genes; C57BL/6J male mouse, HFD-induced NASH, liver; dose not given; reference: vehicle).
`COc1cc(/C=C/C(=O)OCCCC[P+](c2ccccc2)(c2ccccc2)c2ccccc2)ccc1O` — result for “cytochrome c release”: roughly 2.5 fold (immunoblotting; rat liver mitochondria; 10 µM, 15 min; reference: untreated).
`N[C@@H](Cc1c[nH]cn1)C(=O)N1CCC[C@H]1C(=O)NCC(=O)NCC(=O)O`: “ΔS‡ at 298.15 K” -40 ± 1 J/(mol·K) (diketopiperazine formation, transition state theory; 1-propanol; 70, 80, 90 °C, 0.5% acetic acid).
Under “protein level increase”, `Cc1nc(C)c(C=[N+]([O-])C(C)(C)C)nc1C` is recorded as 42.2% (Western blot, item: PGC-1α; mouse, MPTP model, substantia nigra nuclei; 30 mg/kg).
`COc1cc2c(NC3CCN(C(C)C)CC3)cc(N3CCOCC3)nc2cc1OCCCN1CCCC1` — result for “time in open field centre”: “no effect” (3xTg mice 12.25-month-old; dose not given, 6 weeks intermittent).
For `CCCCCCCCCCCCCCc1sc(NC(=O)CN2CCC(O)CC2)nc1-c1ccccc1`, “inhibition in vivo” read 44.2% (paw oedema; mouse; intraperitoneal, 200 µmol/kg).
`COCCOCCOCCC(=O)Oc1ccc(CC(=O)N/C=C/c2ccc(C(F)(F)F)cc2)cc1OC`: “phase II nociception decrease” 54% (C57BL/6 mouse, male and female; intraplantar, 45 µg, with: 2% formalin 120 min later).
For `COc1cc(/N=N/c2ccc([N+](=O)[O-])cc2)ccc1N(CCS(=O)(=O)O)CCS(=O)(=O)O`, “UV-vis absorption change” read “no effect” (Cu2+ binding; aqueous HEPES buffer; concentration not given, pH 7.0, with: Cu2+ up to 0.5 mM).
Under “phospho-EGFR and Ki67”, `C=CC(=O)Nc1cc(Nc2nccc(-n3ccc4nc(OC)ccc43)n2)c(OC)cc1N(C)CCN(C)C` is recorded as “decreased” (BALB/c nude mouse, H1975 xenograft; dose not given, 24 h; reference: vehicle).
With `COc1ccc(C2CC(c3ccc(C)cc3)=Nc3ccccc3S2)cc1OC` (stereo not drawn) the blood glucose was 119 ± 4.57 mg/dL (rat, normal, overnight fasted; oral, 10 mg/kg, 30 min, oral glucose tolerance test, with: glucose 3 g/kg oral).
Under “Tcon cell proliferation”, `CCCC[C@H](NC(=O)[C@H](C)NC(=O)[C@H](CO)NC(=O)[C@H](CC(C)C)NC(=O)[C@H](CCCCN)NC(=O)[C@]1(C)CCCC=CCCCCCC[C@@](C)(NC(=O)[C@H](CCC(=O)O)NC(=O)[C@H](CC(C)C)NC(=O)[C@H](CO)NC(=O)[C@]2(C)CCCC=CCCCCCC[C@@](C)(NC(=O)[C@H](CS)NC(=O)[C@H](CCC(N)=O)NC(=O)[C@H](C)NC(=O)[C@H](CCCNC(=N)N)NC(C)=O)C(=O)N[C@@H](CC(C)C)C(=O)N[C@@H](CCC(N)=O)C(=O)N[C@@H](CCCNC(=N)N)C(=O)N[C@@H](CCC(=O)O)C(=O)N[C@@H](CCCC)C(=O)N[C@@H](C(C)C)C(=O)N2)C(=O)N[C@@H](CCC(N)=O)C(=O)N[C@@H](CC(C)C)C(=O)N[C@@H](C(C)C)C(=O)N[C@@H](CC(C)C)C(=O)N[C@@H](CCC(=O)O)C(=O)N[C@@H](CCCCN)C(=O)N1)C(=O)N[C@@H](CCC(N)=O)C(=O)N[C@@H](C)C(=O)N[C@@H](Cc1c[nH]cn1)C(N)=O` is recorded as 74.1% (Treg-mediated suppression, flow cytometry; Treg and Tcon cells, mouse; dose not given, 3 d, Treg:Tcon 1:1).
With `COc1ccc(C2CC(c3ccc(C)cc3)=Nc3ccccc3S2)cc1` (stereo not drawn) the blood glucose was 191 ± 4.07 mg/dL (Wistar rat, STZ-induced diabetes; oral, 10 mg/kg once daily, day 14).
For `CC[C@H](C)[C@H](NC(=O)[C@H](CC(N)=O)NC(=O)[C@H](CC(N)=O)NC(=O)[C@H](CCCNC(=N)N)NC(=O)[C@H](CC(N)=O)NC(=O)[C@H](CCCNC(=N)N)NC(=O)[C@H](CCCCN)NC(=O)[C@@H](NC(=O)[C@H](CC(N)=O)NC(=O)[C@H](CCSC)NC(=O)[C@H](CC(C)C)NC(=O)[C@H](Cc1c[nH]c2ccccc12)NC(=O)[C@H](CCC(N)=O)NC(=O)[C@@H](NC(=O)[C@H](Cc1ccccc1)NC(=O)[C@H](CC(=O)O)NC(=O)[C@H](CCC(N)=O)NC(=O)[C@H](C)NC(=O)[C@H](CCCNC(=N)N)NC(=O)[C@H](CCCNC(=N)N)NC(=O)[C@H](CO)NC(=O)[C@H](CC(=O)O)NC(=O)[C@H](CC(C)C)NC(=O)[C@H](Cc1ccc(O)cc1)NC(=O)[C@H](CCCCN)NC(=O)[C@H](CO)NC(=O)[C@H](Cc1ccc(O)cc1)NC(=O)[C@H](CC(=O)O)NC(=O)[C@H](CO)NC(=O)[C@@H](NC(=O)[C@H](Cc1ccccc1)NC(=O)[C@@H](NC(=O)CNC(=O)[C@H](CCC(=O)O)NC(=O)[C@@H](CO)NC(=O)[C@@H](N)Cc1c[nH]cn1)[C@@H](C)O)[C@@H](C)O)C(C)C)[C@@H](C)O)C(=O)N[C@@H](C)C(=O)N[C@@H](CSCC(=O)NCCOCCOCCOCCOCCC(=O)O[C@H]1CC[C@@]2(C)C(=CC[C@H]3[C@@H]4CC[C@H]([C@H](C)CCCC(C)C)[C@@]4(C)CC[C@@H]32)C1)C(N)=O`, weight loss read “inhibited” (lean Glp1r knockout mice; subcutaneous, 1.9 µmol/kg daily, 5 days; reference: wild-type mice).
Under “time to peak calcemic response”, `CCCCCCCCCCCCCCCC(=O)NCCCC[C@H](NC(=O)[C@H](CCC(=O)O)NC(=O)[C@H](Cc1ccc(O)cc1)NC(=O)[C@H](CCC(=O)O)NC(=O)COCC(=O)NCCCOCCOCCOCCCNC(=O)[C@H](Cc1ccccc1)NC(=O)[C@H](CC(N)=O)NC(=O)[C@H](Cc1c[nH]cn1)NC(=O)[C@@H](NC(=O)[C@H](CC(=O)O)NC(=O)[C@H](CCC(N)=O)NC(=O)[C@H](CC(C)C)NC(=O)[C@H](CCCCN)NC(=O)[C@H](CCCCN)NC(=O)[C@H](CCCNC(=N)N)NC(=O)[C@H](CC(C)C)NC(=O)[C@H](Cc1c[nH]c2ccccc12)NC(=O)[C@H](CCC(=O)O)NC(=O)[C@@H](NC(=O)[C@H](CCCNC(=N)N)NC(=O)[C@H](CCC(=O)O)NC(=O)[C@H](CCSC)NC(=O)[C@H](CO)NC(=O)[C@H](CC(N)=O)NC(=O)[C@H](CC(C)C)NC(=O)[C@H](Cc1c[nH]cn1)NC(=O)[C@H](CCCCN)NC(=O)CNC(=O)[C@H](CC(C)C)NC(=O)[C@H](CC(N)=O)NC(=O)[C@H](Cc1c[nH]cn1)NC(=O)[C@H](CCSC)NC(=O)[C@H](CC(C)C)NC(=O)[C@H](CCC(N)=O)NC(=O)[C@@H](NC(=O)[C@H](CCC(=O)O)NC(=O)[C@H](CO)NC(=O)[C@@H](NC(=O)[C@@H](N)CO)C(C)C)[C@@H](C)CC)C(C)C)C(C)C)C(=O)N[C@@H](CCC(=O)O)C(=O)N[C@@H](Cc1ccc(O)cc1)C(=O)N[C@@H](CCC(=O)O)C(N)=O` is recorded as 6 h (item: Ca2+; CD-1 mice, blood; sc, 10 nmol/kg).
For `CC(=O)Nc1ccc(OC(=O)CCC(=O)[O][Pt-2]23([O]C(=O)CCC(=O)Oc4ccc(NC(C)=O)cc4)([NH2+][C@@H]4CCCC[C@H]4[NH2+]2)[O]C(=O)C(=O)[O]3)cc1`, “mature dendritic cells” read 23.2% (BALB/c mouse, 4T1 tumour, spleen; dose not given).
`O=C(CN1CCC(O)CC1)Nc1nccs1`: “inhibition in vivo” 52.3% (paw oedema; mouse; intraperitoneal, 200 µmol/kg).
For `N[C@@H](CO)C(=O)N1CCC[C@H]1C(=O)NCC(=O)NCC(=O)O`, “ΔS‡ at 298.15 K” read -72 ± 6 J/(mol·K) (diketopiperazine formation, transition state theory; 1-propanol; 70, 80, 90 °C, 0.5% acetic acid).
`COc1c2c(cc3oc(COC4OC(CO)C(O)C(O)C4O)cc(=O)c13)OC(C(C)(C)O)C2` (stereo not drawn) — result for “hot plate latency”: 10.6 ± 1.38 s (analgesia; mouse; oral, 1 mg/kg, 2 h).
`CC12CC(O)C3CC1(OC1OC(CO)C(O)C(O)C1O)C3(COC(=O)c1ccccc1)C(=O)O2` (stereo not drawn) — result for sucrose preference: “increased” (rats, chronic stress depression model; oral, 7 mg/kg, 14 days; reference: depression group).
Under “mature active delta-secretase level”, `N#Cc1ccc(-c2cc(=O)c3ccc4[nH]c(C(F)(F)F)nc4c3o2)cc1` is recorded as “decreased” (immunoblotting; 5xFAD mice, brain; dose not given).
`CCCOC(=O)Cc1c(C)n(C(=O)c2ccc(Cl)cc2)c2ccc(OC)cc12` — result for “latency of nociceptive response”: 17.8 ± 0.96 s (hot plate test; BALB/c mice; 100 mg/kg, 60 min).
`CN1CCC[C@]1(C)/C=C/S(=O)(=O)NC(=O)Nc1c2c(cc3c1CCC3)CCC2` gave an inhibition of greater than 90% (item: IL-1β; human, whole blood ex vivo; oral, dose not given, multiple ascending dose, with: LPS and ATP).
For `C=C(c1ccc(C(=O)O)c(F)c1)c1cc2c(cc1C)C(C)(C)C=CC2(C)C`, “log2 fold change” read -1.45 (RNA sequencing, item: Mta2; rat, brain; dose not given, 24 h; reference: vehicle).
Under mRNA level, `C=CCC1C(=O)C=C(OC)C2(OC)C(C)C(c3ccc4c(c3)OCO4)OC12` (single isomer, unassigned; (-)) is recorded as “increased” (item: SHP, BSEP; mouse, bile duct ligation, liver; dose not given).
For `N=C(N)NCCC[C@H](N)C(=O)N1CCC[C@H]1C(=O)NCC(=O)NCC(=O)O`, “ΔS‡ at 298.15 K” read 0 ± 1 J/(mol·K) (diketopiperazine formation, transition state theory; 1-propanol; 70, 80, 90 °C, 0.5% acetic acid).

For quick reference, copied from above:
`O=C(CN1CCC(O)CC1)Nc1nccs1`: “inhibition in vivo” 52.3% (paw oedema; mouse; intraperitoneal, 200 µmol/kg).
Under “Tcon cell proliferation”, `CCCC[C@H](NC(=O)[C@H](C)NC(=O)[C@H](CO)NC(=O)[C@H](CC(C)C)NC(=O)[C@H](CCCCN)NC(=O)[C@]1(C)CCCC=CCCCCCC[C@@](C)(NC(=O)[C@H](CCC(=O)O)NC(=O)[C@H](CC(C)C)NC(=O)[C@H](CO)NC(=O)[C@]2(C)CCCC=CCCCCCC[C@@](C)(NC(=O)[C@H](CS)NC(=O)[C@H](CCC(N)=O)NC(=O)[C@H](C)NC(=O)[C@H](CCCNC(=N)N)NC(C)=O)C(=O)N[C@@H](CC(C)C)C(=O)N[C@@H](CCC(N)=O)C(=O)N[C@@H](CCCNC(=N)N)C(=O)N[C@@H](CCC(=O)O)C(=O)N[C@@H](CCCC)C(=O)N[C@@H](C(C)C)C(=O)N2)C(=O)N[C@@H](CCC(N)=O)C(=O)N[C@@H](CC(C)C)C(=O)N[C@@H](C(C)C)C(=O)N[C@@H](CC(C)C)C(=O)N[C@@H](CCC(=O)O)C(=O)N[C@@H](CCCCN)C(=O)N1)C(=O)N[C@@H](CCC(N)=O)C(=O)N[C@@H](C)C(=O)N[C@@H](Cc1c[nH]cn1)C(N)=O` is recorded as 74.1% (Treg-mediated suppression, flow cytometry; Treg and Tcon cells, mouse; dose not given, 3 d, Treg:Tcon 1:1).
`N[C@@H](Cc1c[nH]cn1)C(=O)N1CCC[C@H]1C(=O)NCC(=O)NCC(=O)O`: “ΔS‡ at 298.15 K” -40 ± 1 J/(mol·K) (diketopiperazine formation, transition state theory; 1-propanol; 70, 80, 90 °C, 0.5% acetic acid).
